Experimental data from different studies.
Parts stem from different laboratories: compare values within a part only. Changes are numbered by the printed parent chain.

Series 1
Target: ABI1, truncated, D143A, DHFR fusion (Arabidopsis thaliana)
Method: DHFR PCA, deep sequencing
Sample: yeast
Notes: methotrexate growth selection, single substitutions
With: (+)-ABA 0.032 µM
Baseline: wild-type fitted maximum
Direction: higher = stronger binding
Starting sequence: PYL1, truncated, DHFR fusion (Arabidopsis thaliana); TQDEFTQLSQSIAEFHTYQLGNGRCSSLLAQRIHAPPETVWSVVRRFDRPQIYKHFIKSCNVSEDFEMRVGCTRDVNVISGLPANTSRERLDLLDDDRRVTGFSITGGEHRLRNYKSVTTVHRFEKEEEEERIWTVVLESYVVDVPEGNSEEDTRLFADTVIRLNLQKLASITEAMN; partner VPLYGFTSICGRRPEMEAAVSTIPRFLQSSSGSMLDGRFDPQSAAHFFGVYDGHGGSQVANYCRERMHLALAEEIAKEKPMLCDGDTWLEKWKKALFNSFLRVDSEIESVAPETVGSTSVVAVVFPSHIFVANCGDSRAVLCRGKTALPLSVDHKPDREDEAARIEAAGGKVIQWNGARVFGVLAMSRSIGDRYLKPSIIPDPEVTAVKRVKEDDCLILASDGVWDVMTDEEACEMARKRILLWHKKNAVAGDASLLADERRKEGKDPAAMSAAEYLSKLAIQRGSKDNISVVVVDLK
For `N61Q`, “relative binding score” read 49.8%.
`L166D`: “relative binding score” 3.97%.
Under “relative binding score”, `S27M` is recorded as 2.27%.
Under “relative binding score”, `D65P` is recorded as 41.1%.
Under “relative binding score”, `V78A` is recorded as 2.42%.

Series 2
Target: CCND2, cyclin fold, Cln2 fusion (human)
Method: yeast growth competition, sequencing
Sample: yeast
Notes: weak parent motif
Baseline: not given
Direction: higher = stronger binding
Starting sequence: CDC6 docking peptide (human); TLKGRRLVFDNQL; partner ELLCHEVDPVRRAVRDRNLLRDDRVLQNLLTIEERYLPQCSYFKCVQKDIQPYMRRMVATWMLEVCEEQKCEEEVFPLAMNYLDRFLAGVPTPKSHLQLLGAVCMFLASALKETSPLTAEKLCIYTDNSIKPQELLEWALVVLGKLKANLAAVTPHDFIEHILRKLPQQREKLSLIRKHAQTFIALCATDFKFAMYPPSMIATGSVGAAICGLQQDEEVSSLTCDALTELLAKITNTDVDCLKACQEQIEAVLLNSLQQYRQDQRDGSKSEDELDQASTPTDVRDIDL
Under “normalised enrichment score”, `TLKGRRLVFWNQL [D10W]` is recorded as 0.313.
For `TMKGRRLVFDNQL [L2M]`, “normalised enrichment score” read 0.337.
For `TLKGRRLVFYNQL [D10Y]`, “normalised enrichment score” read 0.879.
`TLKGRRLVFDNPL [Q12P]` — result for “normalised enrichment score”: 0.12.
For `TLWGRRLVFDNQL [K3W]`, “normalised enrichment score” read 0.0879.
`TLKGRRLVFDNIL [Q12I]`: “normalised enrichment score” 0.224.
For `TLKGRRLVFDNQY [L13Y]`, “normalised enrichment score” read 0.35.
`TLKGRRLVFANQL [D10A]` — result for “normalised enrichment score”: -0.00411.
`TVKGRRLVFDNQL [L2V]` — result for “normalised enrichment score”: 0.513.

Series 3
Target: Centromere-binding protein 1, full length, N-terminal tag (CBF1, Saccharomyces cerevisiae, UniProt P17106, residues 1-351)
UniProt P17106, sequence (whole entry, looked up): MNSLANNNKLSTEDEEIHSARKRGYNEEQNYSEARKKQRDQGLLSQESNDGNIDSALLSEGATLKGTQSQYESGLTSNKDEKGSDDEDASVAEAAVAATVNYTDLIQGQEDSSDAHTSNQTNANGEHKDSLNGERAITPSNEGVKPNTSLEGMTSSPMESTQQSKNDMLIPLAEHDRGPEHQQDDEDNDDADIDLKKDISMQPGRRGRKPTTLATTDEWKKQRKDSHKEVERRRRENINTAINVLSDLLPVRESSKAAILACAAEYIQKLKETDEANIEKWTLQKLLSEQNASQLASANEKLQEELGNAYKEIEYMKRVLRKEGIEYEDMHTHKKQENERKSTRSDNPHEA
Method: protein-binding microarray
Molecule type: double-stranded DNA, one strand shown
Sample: in vitro
Concentration: 0.8 µM
Notes: whole 60-bp probe, no competitor
Direction: higher = stronger binding
All sequences stand within: … GTCTTGATTCGCTTGACGCTGCTG
`CTACAACCCAACTTTACCACCAGGGCACACTTCTTC` has a fluorescence intensity of 548 a.u.
`CTACTTCCTATTTCTGATGCATTGAACAGATCGTTC` has a fluorescence intensity of 586 a.u.
With `GAATGCAATGTTCTGCACGTTATTTACTTCGATTAG` the fluorescence intensity was 677 a.u.
With `GAATAAAAAAATAAAAACGTGATCCGTACTTATTAG` the fluorescence intensity was 2680 a.u.
With `GAATCCTTGTACCAGCACATGGCCGAGCTTGAATAG` the fluorescence intensity was 572 a.u.
For `CTATTTTGTTGTTATATTCACGTGCCTGTTTGCTTC`, the fluorescence intensity was 8160 a.u.

Other studies, line by line
With `PhoQ, residues 284 288 289 292 302 303 SSTLLI` the fold induction was 4.64 (PhoP, residues 12 14 15 18 19 AWHSL (Escherichia coli, UniProt P23836); Sort-seq, refers to: YFP reporter; E. coli; PhoQ-PhoP variant library, with: 10 µM Mg2+; baseline: high Mg2+ state, higher = stronger signaling).

Excerpt of the above (other studies, line by line):
With `PhoQ, residues 284 288 289 292 302 303 SSTLLI` the fold induction was 4.64 (PhoP, residues 12 14 15 18 19 AWHSL (Escherichia coli, UniProt P23836); Sort-seq, refers to: YFP reporter; E. coli; PhoQ-PhoP variant library, with: 10 µM Mg2+; baseline: high Mg2+ state, higher = stronger signaling).
